Assay results collected from several papers.
Numbered parts are unrelated; each lists some results of a single study.

Study 1
Target: Phosphate system positive regulatory protein PHO4, full length, GST-tagged (PHO4, Saccharomyces cerevisiae, UniProt P07270, residues 1-312)
Technique: competition protein-binding microarray
Form: double-stranded DNA, one strand shown
Medium: in vitro
Tested at: 2 µM
Notes: whole 60-bp probe, lowest competitor level
Added: Cbf1 competitor, 0.05 µM
Direction: higher = stronger binding
All sequences stand within: … GTCTTGATTCGCTTGACGCTGCTG
Residues (chain): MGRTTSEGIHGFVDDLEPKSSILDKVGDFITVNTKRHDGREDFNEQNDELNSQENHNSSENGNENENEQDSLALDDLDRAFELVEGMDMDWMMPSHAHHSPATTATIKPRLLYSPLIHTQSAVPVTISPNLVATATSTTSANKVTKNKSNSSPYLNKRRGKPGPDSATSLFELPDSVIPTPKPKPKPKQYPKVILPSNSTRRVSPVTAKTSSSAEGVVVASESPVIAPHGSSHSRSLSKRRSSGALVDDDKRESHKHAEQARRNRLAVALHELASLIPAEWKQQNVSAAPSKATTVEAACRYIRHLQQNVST
Sequence	fluorescence intensity [a.u.]
CCGGACACTAGGAAACACGCACAAAATTCTCAGGCA	6710
CGTCCTAGCGATTGAGTCGTGGGTGCCATGAGGAAG	9460
ATGCGATTCGGCCATCACGGGAGAGTCGACTAGTTC	4020
TGCTCGCAATGACAGCACGTGACGGAAAGTGAGAAT	18800
TATCTAATCATTTTGCACGTCAAGATTCTCCTTAAC	3910
CTTCTGTAAATTTGTGAGGTGGGTGGACGCGCCCCG	4630
AAAGCGGTAATTTGCTACGTGGGTGCAGATATCTAT	7530
AAAGCGGTAATTTGATAGGTGGGTGCAGATATCTAT	4240
TCCGAAACGTCGAGTCACGGGTCCTGACAAGCAACC	5900
CTGTGCTGGTCAGCCCATGTGTCTGTCCCTGGCTGG	9130
ATGTCAATGGTACAGCACGTGGTAATTACAGCGGTG	19100
TGATAATGCAATAGCCTTTGATGACAATGTTAGTAA	3410
CATACCCAACCTTGTTATGTGGGTGAAGATATTTGT	4330
AGCAAGTTTTACCATCACCTGCACAACCACAACAGC	5970
GTAATACAGAGGCTTCATGTGACGGGAGAAAGGAGA	5040
ATGTTCATGGAAAAGCACGTGCCACTCCACTTCCAA	20900
GCGGACCAAAAATCGCACGTAGCGCGATATTGTCGG	6560
ATTTGAACATTGAATCATGTGTACCTAACATAAAAT	9040
TTACTGGCGTAGACACCCGTGAAGTAGTGCAATACT	4840

Study 2
Target: RNA binding protein fox-1 homolog 2, RRM domain, GST-SBP tag (RBFOX2, Homo sapiens, UniProt O43251-10, residues 100-194)
Technique: RNA Bind-n-Seq
Form: RNA
Medium: in vitro
Tested at: 365 nM
Notes: natural RNA segment, single round, ends assumed
Baseline: no-protein control
Direction: higher = stronger binding
All sequences stand within: GGGAGUUCUACAGUCCGACGAUC … UGGAAUUCUCGGGUGCCAA
Target sequence (chain): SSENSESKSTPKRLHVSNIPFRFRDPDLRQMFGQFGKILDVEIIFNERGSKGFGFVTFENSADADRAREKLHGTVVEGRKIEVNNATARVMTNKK
Sequence	RBNS enrichment (R)
CCAAUCCUAUGUUUUUGUUCAAAGCCAGCGUCCUCCUCUGUGACCAAUGUCUUGAUGCAUGCACUGUUCCCCCUGUGCAGCCGCUGAGCGAGGAGAUGCUCCUUGGGCCC	3.14
AUCAUGAGGGCCACCUCCACAUUGUCCCCUGCAGAAUAAAUGCGGAUGACAGAAAGCUUAUGCUGUCUACCACUGAACAGUGAUGGAGAUGGUGCUAAGUUUUUACAGUU	0.362
AGAUAGCUAAGUCCUAAUCUAUGGGUACAUUGUUGUGUCCCAAACCAAAAUUUUCCUUAUCCACAAUGUCCCUUCUGUCUCUUCCACUUUACAGUGGACUCGGCCACUGU	0.318
CCCCAGGAGGACAGAUCAUCAUCCACGGCUCACCUGUGCCUGGGCACAUCUUGGAGAGCUUGUGGACAUACUAUCUUUCAAUGAAGUAUAUUCAAAGGAUAUUUAUAUUG	0.238
UACAAAUCCUGCUCUGGUCUCUGGCCCCACAGAGGUGUAAGAUCAUUAAGAAGUAGAAGGCACUAGCUUCAAAGAGUGAGACAUUCAGGGCCUUUUCAGCAUUGGCCCAC	0.322
GCCUGGCUGCCAGGCAACAGGAAGAAAGGCGUAUGGGAAAGUAGGAUGGAGACUGGAACCAUCCUACUGCUGCCAGCUGGAAGCUUUUCUCAGAGAGCCAAAGCUGAAUU	0.518
CACUUCCAGUCCUCCUCAGAGGAUGUGAUGGUGGUAGGAGAGCCAACUCUGAUGGGAGGUGAGUUUGGGGACGAGGACGAAAGGCUAAUCACUAGAUUAGAAAACACGCA	3.64
GUCCCCAAGCUUUCAGGCAGGCACUGAAACGCACCGAACUUCCACGCUCUGCUGGUCAGUGGCGGCUGUCCCCUCCCCAGCCCAGCCGCCCAGCCACAUGUGUCUGCCUG	0.465

Study 3
Target: Interferon regulatory factor 7, full length, phosphomimetic (IRF7, Homo sapiens, UniProt Q92985, residues 1-503, S101K/S471D/S472D/S475D/S476D/S477D/S483D/S484D/S487D)
UniProt Q92985, sequence (whole entry, unmodified, looked up): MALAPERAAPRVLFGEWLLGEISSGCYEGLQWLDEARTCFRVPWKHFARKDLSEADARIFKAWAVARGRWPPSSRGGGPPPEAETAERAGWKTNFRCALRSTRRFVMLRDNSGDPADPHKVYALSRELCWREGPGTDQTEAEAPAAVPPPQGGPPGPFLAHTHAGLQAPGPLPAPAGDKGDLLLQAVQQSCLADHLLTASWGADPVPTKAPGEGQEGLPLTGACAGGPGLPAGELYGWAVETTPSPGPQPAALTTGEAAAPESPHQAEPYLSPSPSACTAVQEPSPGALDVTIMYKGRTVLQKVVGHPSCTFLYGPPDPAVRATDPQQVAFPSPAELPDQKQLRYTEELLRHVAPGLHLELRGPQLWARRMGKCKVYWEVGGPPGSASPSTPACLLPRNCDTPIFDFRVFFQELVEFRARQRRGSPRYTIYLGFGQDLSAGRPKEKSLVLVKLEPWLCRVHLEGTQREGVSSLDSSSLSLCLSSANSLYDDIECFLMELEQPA
Technique: protein-binding microarray
Form: double-stranded DNA, one strand shown
Medium: in vitro
Tested at: 250 nM
Notes: 60-bp whole probe
Added: salmon DNA 0.4 mg/ml
Baseline: random background probes
Direction: higher = stronger binding
All sequences stand within: GCCTAGCAC … GTCTTGATTCGCTTGACGCTGCTG
Sequence	log fluorescence
TCAATTCTGAATTCGAAACTGTGCTAG	2.38 z-score
GACGGACTTGACACTGGGGACGTGCTA	-0.657 z-score
ATAGGACTGCTACTGCTTTAGTGCTAG	-0.528 z-score
TTAGTACTGAGTATCGATTAGTGCTAG	0.871 z-score
TCATCTTCAGGTTCTCCCACTGTGCTA	0.301 z-score
GACGGACGGCTTCTCCTGACGTGCTAG	-0.908 z-score
TCATTTTATGCTTTCTTACTGTGCTAG	1.14 z-score
TTAGGTTTCCTACCGCTTTAGTGCTAG	0.878 z-score
TCACCACCCACTCTGGCACTGTGCTAG	-0.315 z-score
TTTGGTTTCCTTTCCCTTTAGTGCTAG	6.09 z-score
GACGCTTTCGGGTATCGAGACGTGCTA	1.52 z-score
GACGATCTCAGTTTCTAGACGTGCTAG	0.904 z-score
GACAATCTCAGTTTCGAGACGTGCTAG	4.14 z-score
TCATTTCTCTTATTCTAACTGTGCTAG	2.54 z-score
GACGGACTGTGTTTCGGGACGTGCTAG	0.382 z-score
TTAGGTAACGGGACTGGGTTAGTGCTA	-0.085 z-score
GACAATATCGGGACTGGAGACGTGCTA	-0.0931 z-score

Study 4
Target: Histone acetyltransferase KAT6A, both winged helices, GST fusion (KAT6A, Homo sapiens, UniProt Q92794, residues 1-181)
Technique: protein binding microarray
Form: double-stranded DNA, one strand shown
Medium: in vitro
Tested at: not given
Notes: 8-mer, flanks averaged, mean of 2 arrays, mostly near background
Baseline: not given
Direction: higher = stronger binding
Target sequence (chain): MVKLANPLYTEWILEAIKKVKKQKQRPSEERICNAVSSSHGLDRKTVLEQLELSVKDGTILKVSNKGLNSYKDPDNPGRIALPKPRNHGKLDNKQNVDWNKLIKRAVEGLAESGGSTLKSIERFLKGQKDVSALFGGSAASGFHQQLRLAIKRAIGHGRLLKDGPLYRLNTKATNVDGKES
Sequence	E-score
ATCATGAG	-0.0306
GGATCTAA	0.031
AGGCACGG	0.168
GAGTGTAC	0.0537
GCTCTTTA	0.0274
CCATTAGG	-0.102
TTCATCAA	-0.158
CCTGAGAA	-0.132
CGTACTAA	0.0797
CTTCGCGC	0.269
TGGTATAA	-0.101
CATCGCAG	0.0422
GCGAGTAA	0.154
CGATACAG	-0.0555
AAATCCCT	-0.0171
ATCGAGCA	-0.148

For quick reference, copied from above (study 4):
Sequence	E-score
CCATTAGG	-0.102
TTCATCAA	-0.158
CTTCGCGC	0.269
CGTACTAA	0.0797
CCTGAGAA	-0.132
AAATCCCT	-0.0171
